# Assay results collected from several papers.
# Every numbered part comes from another study and shows a few of its results, in no order. Substitutions count along the parent as printed.
# Sequence of UniProt Q12851 (whole entry, looked up): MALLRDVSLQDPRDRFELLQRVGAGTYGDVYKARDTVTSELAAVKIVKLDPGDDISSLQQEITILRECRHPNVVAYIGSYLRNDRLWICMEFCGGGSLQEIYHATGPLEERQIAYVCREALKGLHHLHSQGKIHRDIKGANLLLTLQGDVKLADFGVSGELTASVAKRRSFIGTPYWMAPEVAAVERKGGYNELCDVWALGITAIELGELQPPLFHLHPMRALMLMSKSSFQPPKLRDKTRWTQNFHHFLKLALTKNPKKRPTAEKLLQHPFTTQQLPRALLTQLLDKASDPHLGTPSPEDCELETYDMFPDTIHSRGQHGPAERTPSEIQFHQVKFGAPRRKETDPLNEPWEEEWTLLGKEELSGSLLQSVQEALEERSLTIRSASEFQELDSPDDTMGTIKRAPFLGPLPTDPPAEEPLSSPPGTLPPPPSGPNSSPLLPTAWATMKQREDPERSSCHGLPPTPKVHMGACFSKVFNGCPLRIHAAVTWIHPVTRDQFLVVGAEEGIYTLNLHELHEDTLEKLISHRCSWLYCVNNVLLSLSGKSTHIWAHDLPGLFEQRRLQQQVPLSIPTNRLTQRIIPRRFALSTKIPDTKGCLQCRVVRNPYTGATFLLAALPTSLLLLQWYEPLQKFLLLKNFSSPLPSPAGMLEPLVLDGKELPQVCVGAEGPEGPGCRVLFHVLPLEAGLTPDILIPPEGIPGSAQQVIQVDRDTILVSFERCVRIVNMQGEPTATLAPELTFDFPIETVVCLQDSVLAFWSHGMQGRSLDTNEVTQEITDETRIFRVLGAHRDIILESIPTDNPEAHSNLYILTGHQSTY

# Set 1 — technique: universal PBM; form: double-stranded DNA, one strand shown; matrix: in vitro; concentration: not given; reading: higher = stronger binding
# Target: Sal-like protein 4, full length isoform B (SALL4, Homo sapiens, UniProt Q9UJQ4-2, residues 1-616)
# Notes: 8-mer, flanks averaged, mean of replicates
Strand,E-score
CTCTGTTC,-0.0411
GCCCTCTA,-0.211
ACGTACGA,0.0644
AGAGGTCC,-0.136
TGATGCAA,0.105
GCCGCGGA,-0.354
CTTCACAC,0.097
AGACCGAT,-0.0779

# Set 2 — technique: RNAcompete; form: RNA; matrix: in vitro; concentration: 20 nM; notes: 7-mer, probes averaged, single round; baseline: mean of 7-mers; reading: higher = stronger binding
# Target: PABPC1L2, full length, GST fusion (mouse, UniProt A0ABA7IW68)
# Residues (chain): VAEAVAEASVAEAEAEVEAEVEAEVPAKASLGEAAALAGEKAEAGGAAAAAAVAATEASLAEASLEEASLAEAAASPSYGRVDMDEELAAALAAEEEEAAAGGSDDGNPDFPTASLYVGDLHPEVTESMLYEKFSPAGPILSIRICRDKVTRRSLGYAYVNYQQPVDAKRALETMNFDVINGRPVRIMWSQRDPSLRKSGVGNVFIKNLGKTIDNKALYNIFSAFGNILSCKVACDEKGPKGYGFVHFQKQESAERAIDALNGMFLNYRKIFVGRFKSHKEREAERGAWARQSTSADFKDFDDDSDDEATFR
Strand,7-mer Z-score
UUGUACA,-0.206
AUCAGAU,0.0442
CCGAGUC,-0.277
AUGAUGA,-0.0645
CCGGCGU,-0.313
CGGUAUU,-0.302
ACCUCCA,-0.222
CUCCCAA,-0.0699

# Set 3 — target: CEP164, C-terminal peptide (human); technique: DHFR complementation, deep sequencing; matrix: yeast; baseline: wild type; reading: higher = weaker binding
# Notes: single substitutions, model-inferred values
# Parent: PDZK1, PDZ domain 2 (human); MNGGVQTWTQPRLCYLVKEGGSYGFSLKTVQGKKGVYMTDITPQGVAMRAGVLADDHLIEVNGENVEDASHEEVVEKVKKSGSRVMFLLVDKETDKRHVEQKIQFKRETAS; partner HNRVKVYRF
Substitution,binding free energy change [kcal/mol]
A110V,-0.0915
V66N,0.933
K106E,-0.122
I59L,0.115
A69L,-0.437
L16R,1.39
Y15S,0.0051
G32Y,0.198

# Mixed results
Compound,target,observed,action,concentration,baseline,endpoint,value
CCN(CC)C(=O)c1ccc(Nc2nc(OCC3CCCCC3)c3[nH]cnc3n2)cc1,"Mitogen-activated protein kinase kinase kinase kinase 2 (MAP4K2, Homo sapiens, UniProt Q12851)",enzyme activity,inhibitor,0.5 µM,control,remaining activity,59.7%

# Repeated from above (set 2):
Strand,7-mer Z-score
CCGAGUC,-0.277
AUGAUGA,-0.0645
CUCCCAA,-0.0699
